# Experimental data of several laboratories.
# Protocols differ between the studies behind these lines.
SMILES,method,sample,tested at,pH,temperature,setting,helicity [%]
CC[C@H](C)[C@H](NC(=O)[C@H](Cc1ccccc1)NC(=O)[C@H](CC(=O)O)NC(=O)[C@@H]1CNC(=O)NCC[C@H](NC(=O)[C@H](CC(C)C)NC(=O)[C@H](CCCNC(=N)N)NC(=O)[C@H](CCSC)NC(=O)[C@H](C)N)C(=O)N[C@@H](CCCCN)C(=O)N[C@@H](Cc2ccccc2)C(=O)N[C@@H](Cc2ccccc2)C(=O)N1)C(=O)N[C@@H](CC(C)C)C(=O)N[C@@H](CCC(N)=O)C(=O)N[C@@H](CCCNC(=N)N)C(=O)N[C@@H](CCCCN)C(=O)N[C@@H](CCCCN)C(=O)O,circular dichroism,20% TFE in PBS,200 µM,pH 7.4,25 °C,,8.2
CC(C)C[C@H](NC=O)C(=O)N[C@@H](C)C(=O)N[C@@H](C)C(=O)N[C@@H](CC(=O)O)C(=O)N[C@@H](CC(C)C)C(=O)N[C@@H](CC(C)C)C(=O)N[C@@H](C)C(=O)N[C@@H](C)C(=O)N[C@@H](CC(C)C)C(=O)NCC(=O)N[C@@H](CC(=O)O)C(=O)N[C@@H](CC(C)C)C(=O)N[C@@H](C)C(=O)N[C@@H](CCCCN)C(=O)N[C@@H](Cc1c[nH]c2ccccc12)C(=O)N[C@@H](CC(C)C)C(=O)N[C@@H](CC(C)C)C(=O)N[C@@H](CC(=O)O)C(=O)N[C@@H](C)C(=O)N[C@@H](CC(C)C)C(=O)N[C@@H](C)C(=O)N[C@@H](CCCCN)C(=O)N[C@@H](C)C(=O)N[C@@H](C)C(=O)N[C@@H](CCCCN)C(=O)N[C@@H](CCCCN)C(=O)O (racemic),circular dichroism,POPC vesicles 5 mM,20 µM,,,fully membrane bound,54
CC(C)C[C@H](NC(=O)[C@H](CCC(=O)O)NC(=O)[C@H](C)NC(=O)[C@H](CCC(=O)O)NC(=O)[C@H](CCC(=O)O)NC(=O)[C@H](Cc1c[nH]cn1)NC(=O)[C@H](CCCNC(=N)N)NC(=O)[C@H](CCC(=O)O)NC(=O)[C@H](CC(N)=O)NC(=O)[C@H](CCCCN)NC(=O)[C@H](CC(C)C)NC(=O)[C@H](CCCNC(=N)N)NC(=O)[C@H](CCC(N)=O)NC(=O)[C@H](CC(C)C)NC(=O)[C@H](CCC(=O)O)NC(=O)[C@H](C)NC(=O)[C@H](CC(N)=O)NC(=O)[C@H](C)NC(=O)[C@@H](NC(=O)[C@H](CC(C)C)NC(=O)[C@H](CCCCN)NC(=O)[C@H](CCC(=O)O)NC(=O)[C@@H](NC(=O)[C@H](CO)NC(=O)CN)C(C)C)[C@@H](C)O)C(=O)N[C@@H](CCC(=O)O)C(=O)N[C@@H](CCCNC(=N)N)C(=O)N[C@@H](CC(C)C)C(=O)N[C@@H](CCCCN)C(=O)N[C@@H](CO)C(=O)N[C@@H](CCC(=O)O)C(=O)N[C@@H](Cc1ccc(O)cc1)C(=O)O,circular dichroism,sodium phosphate,30 µM,pH 7.4,room temperature,,18
CC[C@H](C)[C@H](NC(=O)[C@H](Cc1ccccc1)NC(=O)[C@H](CC(=O)O)NC(=O)[C@@H]1CNC(=O)NCCC[C@H](NC(=O)[C@H](CC(C)C)NC(=O)[C@H](CCCNC(=N)N)NC(=O)[C@H](CCSC)NC(=O)[C@H](C)N)C(=O)N[C@@H](CCCCN)C(=O)N[C@@H](Cc2ccccc2)C(=O)N[C@@H](Cc2ccccc2)C(=O)N1)C(=O)N[C@@H](CC(C)C)C(=O)N[C@@H](CCC(N)=O)C(=O)N[C@@H](CCCNC(=N)N)C(=O)N[C@@H](CCCCN)C(=O)N[C@@H](CCCCN)C(=O)O,circular dichroism,20% TFE in PBS,200 µM,pH 7.4,25 °C,,17
CC[C@H](C)[C@H](NC(=O)[C@H](CCCNC(=N)N)NC(=O)CNC(=O)[C@H](CC(C)C)NC(=O)[C@H](CC(C)C)NC(=O)[C@H](CCCCN)NC(=O)[C@H](Cc1ccccc1)NC(=O)[C@H](C)N)C(=O)N[C@H](C(=O)N[C@@H](Cc1c[nH]cn1)C(=O)N[C@@H](Cc1c[nH]cn1)C(=O)N[C@H](C(=O)NCC(=O)N[C@@H](CC(N)=O)C(=O)N[C@@H](Cc1ccccc1)C(=O)N[C@H](C(=O)N[C@@H](Cc1ccc(O)c(O)c1)C(=O)NCC(=O)N[C@@H](Cc1ccccc1)C(=O)N[C@@H](CO)C(=O)N[C@@H](Cc1c[nH]cn1)C(=O)N[C@H](C(=O)N[C@@H](Cc1ccccc1)C(N)=O)C(C)C)C(C)C)C(C)C)[C@@H](C)CC,CD spectroscopy,50% TFE,50 µM,,,,21.6
CC[C@H](C)[C@H](NC(=O)[C@H](Cc1c[nH]c2ccccc12)NC(=O)[C@H](CCCCN)NC(=O)[C@@H](NC(=O)[C@H](CC(C)C)NC(=O)[C@H](CC(=O)O)NC(=O)CNC(=O)[C@@H](NC(=O)[C@@H](NC(=O)[C@H](CO)NC(=O)[C@@H](NC(=O)[C@@H](NC(=O)[C@H](CC(=O)O)NC(=O)[C@H](CCC(N)=O)NC(=O)[C@H](C)NC(=O)[C@H](CCSC)NC=O)[C@@H](C)CC)[C@@H](C)CC)[C@@H](C)O)[C@@H](C)CC)C(C)C)C(=O)N[C@H](C(=O)N[C@@H](CC(=O)O)C(=O)N[C@H](C(=O)N[C@H](C(=O)N[C@@H](CC(N)=O)C(=O)N[C@@H](CCCCN)C(=O)N[C@@H](Cc1ccccc1)C(=O)N[C@H](C(=O)N[C@@H](CCCCN)C(=O)N[C@@H](CCCCN)C(=O)O)[C@@H](C)O)C(C)C)[C@@H](C)O)[C@@H](C)CC,circular dichroism,POPC vesicles 5 mM,20 µM,,,fully membrane bound,100
CC(C)C[C@H](NC(=O)[C@H](CCC(=O)O)NC(=O)[C@H](C)NC(=O)[C@H](CCC(=O)O)NC(=O)[C@H](CCC(=O)O)NC(=O)[C@H](Cc1c[nH]cn1)NC(=O)[C@H](CCCNC(=N)N)NC(=O)[C@H](CCC(=O)O)NC(=O)[C@H](CC(N)=O)NC(=O)[C@H](CCCCN)NC(=O)[C@H](CC(C)C)NC(=O)[C@H](CCCNC(=N)N)NC(=O)[C@H](CCC(N)=O)NC(=O)[C@H](CC(C)C)NC(=O)[C@H](CCC(=O)O)NC(=O)[C@H](C)NC(=O)[C@H](C)NC(=O)[C@H](C)NC(=O)[C@@H](NC(=O)[C@H](CC(C)C)NC(=O)[C@H](CCCCN)NC(=O)[C@H](CCC(=O)O)NC(=O)[C@@H](NC(=O)[C@H](CO)NC(=O)CN)C(C)C)[C@@H](C)O)C(=O)N[C@@H](CCC(=O)O)C(=O)N[C@@H](CCCNC(=N)N)C(=O)N[C@@H](CC(C)C)C(=O)N[C@@H](CCCCN)C(=O)N[C@@H](CO)C(=O)N[C@@H](CCC(=O)O)C(=O)N[C@@H](Cc1ccc(O)cc1)C(=O)O,circular dichroism,sodium phosphate,30 µM,pH 7.4,room temperature,,29
CC[C@H](C)[C@H](NC(=O)[C@H](Cc1ccccc1)NC(=O)[C@H](CC(=O)O)NC(=O)[C@H](CCCNC(=N)N)NC(=O)[C@H](Cc1ccccc1)NC(=O)[C@H](Cc1ccccc1)NC(=O)[C@H](CCCCN)NC(=O)[C@H](CO)NC(=O)[C@H](CC(C)C)NC(=O)[C@H](CCCNC(=N)N)NC(=O)[C@H](CCSC)NC(=O)[C@@H](N)CCC(=O)O)C(=O)N[C@@H](CC(C)C)C(=O)N[C@@H](CCC(N)=O)C(=O)N[C@@H](CCCNC(=N)N)C(=O)N[C@@H](CCCCN)C(=O)N[C@@H](CCCCN)C(=O)O,circular dichroism,20% TFE in PBS,200 µM,pH 7.4,25 °C,,20
CC(C)C[C@H](NC=O)C(=O)N[C@@H](C)C(=O)N[C@@H](C)C(=O)N[C@@H](CC(=O)O)C(=O)N[C@@H](CC(C)C)C(=O)N[C@@H](CC(C)C)C(=O)N[C@@H](C)C(=O)N[C@@H](C)C(=O)N[C@@H](CC(C)C)C(=O)NCC(=O)N[C@@H](CC(=O)O)C(=O)N[C@@H](CC(C)C)C(=O)N[C@@H](CC(C)C)C(=O)N[C@@H](CCCCN)C(=O)N[C@@H](Cc1c[nH]c2ccccc12)C(=O)N[C@@H](CC(C)C)C(=O)N[C@@H](CC(C)C)C(=O)N[C@@H](CC(=O)O)C(=O)N[C@@H](C)C(=O)N[C@@H](CC(C)C)C(=O)N[C@@H](C)C(=O)N[C@@H](CCCCN)C(=O)N[C@@H](CC(C)C)C(=O)N[C@@H](C)C(=O)N[C@@H](CCCCN)C(=O)N[C@@H](CCCCN)C(=O)O (racemic),circular dichroism,POPC vesicles 5 mM,20 µM,,,fully membrane bound,77
CC[C@H](C)[C@@H]1NC(=O)[C@H](Cc2ccccc2)NC(=O)[C@H](CC(=O)O)NC(=O)[C@H](CCCNC(=N)N)NC(=O)[C@H](Cc2ccccc2)NC(=O)[C@H](Cc2ccccc2)NC(=O)[C@@H](NC(=O)[C@H](CO)NC(=O)[C@H](CC(C)C)NC(=O)[C@H](CCCNC(=N)N)NC(=O)[C@H](CCSC)NC(=O)[C@H](C)N)CCCCNC(=O)NCCC[C@@H](C(=O)N[C@@H](CCC(N)=O)C(=O)N[C@@H](CCCNC(=N)N)C(=O)N[C@@H](CCCCN)C(=O)N[C@@H](CCCCN)C(=O)O)NC1=O,circular dichroism,20% TFE in PBS,200 µM,pH 7.4,25 °C,,21.6

# Repeated from above:
SMILES,method,sample,tested at,pH,temperature,setting,helicity [%]
CC(C)C[C@H](NC=O)C(=O)N[C@@H](C)C(=O)N[C@@H](C)C(=O)N[C@@H](CC(=O)O)C(=O)N[C@@H](CC(C)C)C(=O)N[C@@H](CC(C)C)C(=O)N[C@@H](C)C(=O)N[C@@H](C)C(=O)N[C@@H](CC(C)C)C(=O)NCC(=O)N[C@@H](CC(=O)O)C(=O)N[C@@H](CC(C)C)C(=O)N[C@@H](CC(C)C)C(=O)N[C@@H](CCCCN)C(=O)N[C@@H](Cc1c[nH]c2ccccc12)C(=O)N[C@@H](CC(C)C)C(=O)N[C@@H](CC(C)C)C(=O)N[C@@H](CC(=O)O)C(=O)N[C@@H](C)C(=O)N[C@@H](CC(C)C)C(=O)N[C@@H](C)C(=O)N[C@@H](CCCCN)C(=O)N[C@@H](CC(C)C)C(=O)N[C@@H](C)C(=O)N[C@@H](CCCCN)C(=O)N[C@@H](CCCCN)C(=O)O (racemic),circular dichroism,POPC vesicles 5 mM,20 µM,,,fully membrane bound,77
